Published values gathered from unrelated publications.
Compare with care: the assays were run in different laboratories.
rep main protease: Replicase polyprotein 1ab, main protease (rep, Severe acute respiratory syndrome coronavirus 2, UniProt P0DTD1)
Spike glycoprotein: Spike glycoprotein (Severe acute respiratory syndrome coronavirus 2, UniProt P0DTC2)

| SMILES | tested on | assay | test system | conditions | how to read | endpoint | result |
| --- | --- | --- | --- | --- | --- | --- | --- |
| CC[C@H](C)[C@H](NC(=O)[C@H](Cc1c[nH]cn1)NC(=O)[C@H](CO)NC(=O)CNC(=O)[C@H](CCC(=O)O)NC(=O)[C@H](CCSC)NC(=O)[C@@H](NC(=O)[C@H](Cc1c[nH]cn1)NC(=O)[C@H](CO)NC(=O)[C@H](CCSC)NC(=O)[C@H](C)NC(=O)[C@H](CC(N)=O)NC(C)=O)C(C)C)C(=O)N[C@@H](CC(N)=O)C(=O)N[C@@H](Cc1c[nH]c2ccccc12)C(=O)N[C@@H](CC(=O)O)C(=O)N[C@@H](C)C(N)=O | Polyprotein P1234, nsP2 protease domain (Chikungunya virus, UniProt Q8JUX6) | protease activity, inhibitor, FRET |  | 20 min, pH 7.5, 20 °C |  | IC50 | ≤ 900 µM |
| COc1ccc2c3c([nH]c2c1)[C@H](C=C(C)C)N1C(=O)[C@@H]2CCCN2C(=O)[C@@H]1C3 | ABCB1 (Homo sapiens, UniProt P08183) | JC-1 efflux, inhibitor | Jurkat-DNR |  |  | IC50 | inactive |
| Nc1ncnc2c1ncn2CCCNC(=O)c1ccc(S(=O)(=O)F)cc1 | cya (Bacillus anthracis, UniProt P40136) |  |  |  |  | kinact | 0.0002 s⁻¹ |
| CCOC(=O)[C@H](CCc1ccccc1)N[C@H]1CS[C@H](c2cccs2)CN(CC(=O)O)C1=O | rep main protease | viral replication, Gluc reporter | SARS-CoV-2 | 20 µM |  | inhibition | 1.54% |
| CCc1c2c(nc3ccc(OC(=O)N4CCC(N5CCCCC5)CC4)cc13)-c1cc3c(c(=O)n1C2)COC(=O)[C@]3(O)CC | Spike glycoprotein | binding, BLI |  |  |  | koff | 0.0241 s⁻¹ |
| CC(=O)OCCN1C(=O)c2c(C)nc3ccc(S(=O)(=O)N4CCOCC4)cc3c2C1=O | rep main protease | reporter gene (Gaussia luciferase), inhibitor |  | 20 µM |  | inhibition | 1.57% |
| O=C(N[C@@H](CNC(=O)[C@@H]1CCCc2[nH]cnc21)c1ccc2ccccc2c1)c1cncc(F)c1 | rep main protease | enzyme activity, inhibitor |  | 5 µM, run 2 |  | inhibition | 10.2% |
| NC(=S)N/N=C(/c1cccc(O)c1)c1cccc(Br)c1 | rep main protease | viral replication, Gluc reporter | SARS-CoV-2 | 20 µM |  | inhibition | 0.528% |
| CCOc1ccc(CN2CCN(Cc3ccc4c(c3)c3ccccc3n4CC)CC2)cc1 | SARS-CoV-2 | cytopathic effect | USA_WA1/2020 | round 2, 5-point |  | efficacy | 68.7% |
| CN(Cc1cc(Br)cc(Br)c1N)C1CCCCC1 | rep main protease | reporter gene (mKate2), inhibitor |  | 20 µM |  | inhibition | -0.476% |
| COc1cc2c3cc1Oc1c(OC)c(OC)cc4c1[C@@H](Cc1ccc(O)c(c1)Oc1ccc(cc1)C[C@@H]3N(C)CC2)N(C)CC4 | Spike glycoprotein | binding, BLI |  |  |  | kon | 89.8 M⁻¹ s⁻¹ |
| CNC(=O)[C@@H](NC(=O)[C@H](CC(C)C)[C@H](O)C(=O)NO)C(C)(C)C | human fibrinogen | SDS-PAGE | Daboia russelii | concentration not given, unit not given, added: KA venom | relative to: untreated fibrinogen | remaining fibrinogen Aα chain | 0.634 |
| CC[C@H](C)[C@H](NC(=O)[C@H](CC(C)C)NC(=O)[C@H](Cc1c[nH]c2ccccc12)NC(=O)[C@H](CCC(N)=O)NC(=O)[C@@H](NC(=O)[C@H](Cc1ccccc1)NC(=O)[C@H](C)NC(=O)[C@H](CCCCNC(=O)COCCOCCNC(=O)COCCOCCNC(=O)CC[C@H](NC(=O)CCCCCCCCCCCCCCCCCCC(=O)O)C(=O)O)NC(=O)[C@H](CCC(N)=O)NC(=O)[C@H](C)NC(=O)[C@@H](NC(=O)[C@H](CCCCN)NC(=O)[C@H](CC(=O)O)NC(=O)[C@H](CC(C)C)NC(=O)C(C)(C)NC(=O)[C@@H](NC(=O)[C@H](CO)NC(=O)[C@H](Cc1ccc(O)cc1)NC(=O)[C@H](CC(=O)O)NC(=O)[C@H](CO)NC(=O)[C@@H](NC(=O)[C@H](Cc1ccccc1)NC(=O)[C@@H](NC(=O)CNC(=O)[C@H](CCC(=O)O)NC(=O)C(C)(C)NC(=O)[C@@H](N)Cc1ccc(O)cc1)[C@@H](C)O)[C@@H](C)O)[C@@H](C)CC)[C@@H](C)CC)C(C)C)C(=O)N[C@@H](C)C(=O)NCC(=O)NCC(=O)N1CCC[C@H]1C(=O)N[C@@H](CO)C(=O)N[C@@H](CO)C(=O)NCC(=O)N[C@@H](C)C(=O)N1CCC[C@H]1C(=O)N1CCC[C@H]1C(=O)N1CCC[C@H]1C(=O)N[C@@H](CO)C(N)=O |  | item: anti-drug antibodies | healthy subjects | 4.5 mg, postbaseline, multiple ascending dose, titre ≥1:20 |  | subjects with treatment-induced ADA | 0% |
| O=C(Cn1c(O)ccc1O)N[C@@H]1CCCCC12CCN(C(=O)c1cncc3[nH]cnc13)CC2 | rep main protease | enzyme activity, inhibitor |  | 5 µM, run 1 |  | inhibition | 13.8% |
| C[C@@H]1O[C@@H](O[C@@H]2[C@@H](O)[C@H](OCCc3ccc(O)c(O)c3)O[C@H](CO)[C@H]2OC(=O)/C=C/c2ccc(O)c(O)c2)[C@H](O)[C@H](O)[C@H]1O | Spike glycoprotein | binding, BLI |  |  |  | koff | 0.00157 s⁻¹ |
| Cc1ncc(/C=C\C(=O)NC[C@@H]2CC3(CCC3)CN2C(=O)[C@@H]2CC(=O)NC(=O)N2)c(=O)[nH]1 | rep main protease | enzyme activity |  | 5 µM |  | inhibition | 16.2% |
| Cn1cnc(Cn2c(=O)[nH]/c(=N\c3cc4cn(C)nc4cc3Cl)n(Cc3cc(F)c(F)cc3F)c2=O)n1 |  |  | human, normal renal function | oral, 375 mg, treatment-related decreased GFR, Severe severity |  | patients with adverse event | 0% |
| C#CC1(C(=O)NC[C@H](NC(=O)c2cncc3[nH]ccc23)c2ccc3ccccc3c2)CC1 | rep main protease | enzyme activity, inhibitor |  | 5 µM, run 1 |  | inhibition | 15.8% |
| Nc1ncnc2c([C@@H]3N[C@H](CO)[C@@H](O)[C@H]3O)c[nH]c12 | Venezuelan equine encephalitis virus | viral replication | HeLa, SH3 | 0.8 µM |  | inhibition | 0.5% |

A few entries again:
| SMILES | tested on | assay | test system | conditions | how to read | endpoint | result |
| --- | --- | --- | --- | --- | --- | --- | --- |
| CNC(=O)[C@@H](NC(=O)[C@H](CC(C)C)[C@H](O)C(=O)NO)C(C)(C)C | human fibrinogen | SDS-PAGE | Daboia russelii | concentration not given, unit not given, added: KA venom | relative to: untreated fibrinogen | remaining fibrinogen Aα chain | 0.634 |
